Measurements gathered from unrelated publications.
A part holds a random share of what one study measured.
Chain of UniProt P08173 (whole entry, looked up): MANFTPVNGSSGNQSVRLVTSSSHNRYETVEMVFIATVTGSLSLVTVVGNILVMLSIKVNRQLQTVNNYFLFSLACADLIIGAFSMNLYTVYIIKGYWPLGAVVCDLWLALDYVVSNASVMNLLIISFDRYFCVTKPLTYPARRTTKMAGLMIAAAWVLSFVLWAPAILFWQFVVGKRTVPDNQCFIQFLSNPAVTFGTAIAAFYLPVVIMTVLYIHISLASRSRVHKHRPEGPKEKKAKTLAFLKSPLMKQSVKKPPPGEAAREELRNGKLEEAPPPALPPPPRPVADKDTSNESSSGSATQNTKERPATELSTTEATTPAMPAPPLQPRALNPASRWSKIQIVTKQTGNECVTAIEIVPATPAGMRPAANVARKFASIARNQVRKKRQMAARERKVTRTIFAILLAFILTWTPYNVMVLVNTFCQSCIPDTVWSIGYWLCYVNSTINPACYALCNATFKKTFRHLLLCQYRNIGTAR
Chain of UniProt O14757 (whole entry, looked up): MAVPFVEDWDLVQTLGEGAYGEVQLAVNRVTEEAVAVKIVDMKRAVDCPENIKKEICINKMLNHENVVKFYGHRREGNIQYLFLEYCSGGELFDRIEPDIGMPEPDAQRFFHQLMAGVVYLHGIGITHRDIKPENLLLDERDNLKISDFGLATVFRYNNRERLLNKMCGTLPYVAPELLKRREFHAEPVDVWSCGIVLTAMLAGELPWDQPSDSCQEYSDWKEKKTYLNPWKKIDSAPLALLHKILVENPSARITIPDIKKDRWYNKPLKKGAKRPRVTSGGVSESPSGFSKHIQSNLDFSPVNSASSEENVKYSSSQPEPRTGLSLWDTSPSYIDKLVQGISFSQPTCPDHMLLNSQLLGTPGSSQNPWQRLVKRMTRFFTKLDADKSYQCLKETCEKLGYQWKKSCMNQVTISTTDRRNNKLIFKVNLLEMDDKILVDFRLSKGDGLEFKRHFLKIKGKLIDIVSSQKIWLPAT
Chain of UniProt P05771 (whole entry, looked up): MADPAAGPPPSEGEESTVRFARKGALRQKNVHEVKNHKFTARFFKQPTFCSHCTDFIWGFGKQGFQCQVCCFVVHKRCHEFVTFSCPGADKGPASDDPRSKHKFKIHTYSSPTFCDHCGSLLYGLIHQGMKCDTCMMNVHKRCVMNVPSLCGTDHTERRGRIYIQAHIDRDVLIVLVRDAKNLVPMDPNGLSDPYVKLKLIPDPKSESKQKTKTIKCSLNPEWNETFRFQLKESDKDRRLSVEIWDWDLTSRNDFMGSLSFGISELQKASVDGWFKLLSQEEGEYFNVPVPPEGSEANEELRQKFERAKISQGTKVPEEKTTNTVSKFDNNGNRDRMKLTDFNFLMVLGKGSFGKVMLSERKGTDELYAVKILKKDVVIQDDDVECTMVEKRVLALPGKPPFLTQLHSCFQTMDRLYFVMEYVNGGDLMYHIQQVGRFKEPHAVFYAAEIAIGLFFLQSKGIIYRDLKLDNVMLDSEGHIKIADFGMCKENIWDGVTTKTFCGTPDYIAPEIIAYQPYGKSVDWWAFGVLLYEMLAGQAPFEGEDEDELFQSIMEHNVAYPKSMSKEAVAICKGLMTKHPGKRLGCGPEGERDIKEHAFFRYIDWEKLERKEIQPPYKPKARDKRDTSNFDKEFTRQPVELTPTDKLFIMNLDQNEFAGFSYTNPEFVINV
Chain of UniProt P54762 (whole entry, looked up): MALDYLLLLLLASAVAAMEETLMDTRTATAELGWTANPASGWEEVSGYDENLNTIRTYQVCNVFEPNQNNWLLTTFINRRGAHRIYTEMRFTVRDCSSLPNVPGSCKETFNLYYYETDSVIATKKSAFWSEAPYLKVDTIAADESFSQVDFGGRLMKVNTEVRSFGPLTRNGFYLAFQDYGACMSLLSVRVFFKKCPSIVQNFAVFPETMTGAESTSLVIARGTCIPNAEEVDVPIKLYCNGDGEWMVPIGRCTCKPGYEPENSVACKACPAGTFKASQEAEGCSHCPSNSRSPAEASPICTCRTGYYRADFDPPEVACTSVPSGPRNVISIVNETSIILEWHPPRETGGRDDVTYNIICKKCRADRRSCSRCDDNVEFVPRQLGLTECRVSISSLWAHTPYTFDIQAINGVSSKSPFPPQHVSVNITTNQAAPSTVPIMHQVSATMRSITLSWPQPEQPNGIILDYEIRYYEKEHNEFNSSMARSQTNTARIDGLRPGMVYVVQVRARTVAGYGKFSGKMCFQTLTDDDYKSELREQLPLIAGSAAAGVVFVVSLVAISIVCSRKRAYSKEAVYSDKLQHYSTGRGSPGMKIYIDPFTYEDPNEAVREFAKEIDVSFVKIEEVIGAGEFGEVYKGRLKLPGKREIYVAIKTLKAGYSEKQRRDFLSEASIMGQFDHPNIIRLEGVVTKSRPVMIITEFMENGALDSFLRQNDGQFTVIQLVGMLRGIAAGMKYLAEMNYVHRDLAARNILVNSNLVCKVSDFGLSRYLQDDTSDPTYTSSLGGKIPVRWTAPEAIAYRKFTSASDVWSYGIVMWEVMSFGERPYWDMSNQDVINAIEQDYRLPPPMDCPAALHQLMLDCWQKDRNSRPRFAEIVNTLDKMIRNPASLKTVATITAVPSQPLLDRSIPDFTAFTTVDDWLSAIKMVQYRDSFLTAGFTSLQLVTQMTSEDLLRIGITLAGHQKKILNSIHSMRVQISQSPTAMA
Chain of UniProt Q5BJF2 (whole entry, looked up): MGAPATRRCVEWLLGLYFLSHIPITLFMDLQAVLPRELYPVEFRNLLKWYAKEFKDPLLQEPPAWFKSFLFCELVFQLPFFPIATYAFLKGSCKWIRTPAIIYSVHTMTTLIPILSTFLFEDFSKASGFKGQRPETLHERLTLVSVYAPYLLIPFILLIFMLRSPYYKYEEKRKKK
Chain of UniProt P14416 (whole entry, looked up): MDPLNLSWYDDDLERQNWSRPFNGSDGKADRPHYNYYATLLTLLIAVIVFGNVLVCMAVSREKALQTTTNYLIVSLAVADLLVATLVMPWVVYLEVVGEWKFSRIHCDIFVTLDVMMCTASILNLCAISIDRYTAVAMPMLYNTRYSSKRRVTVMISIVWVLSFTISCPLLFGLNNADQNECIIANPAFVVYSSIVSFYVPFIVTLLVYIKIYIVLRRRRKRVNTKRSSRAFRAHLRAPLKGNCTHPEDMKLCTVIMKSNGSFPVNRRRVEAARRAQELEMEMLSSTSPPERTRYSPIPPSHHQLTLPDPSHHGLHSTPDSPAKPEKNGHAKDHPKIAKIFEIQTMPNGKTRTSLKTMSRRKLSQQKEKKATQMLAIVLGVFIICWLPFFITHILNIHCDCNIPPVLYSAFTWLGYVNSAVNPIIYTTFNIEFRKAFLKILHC
Chain of UniProt O95382 (whole entry, looked up): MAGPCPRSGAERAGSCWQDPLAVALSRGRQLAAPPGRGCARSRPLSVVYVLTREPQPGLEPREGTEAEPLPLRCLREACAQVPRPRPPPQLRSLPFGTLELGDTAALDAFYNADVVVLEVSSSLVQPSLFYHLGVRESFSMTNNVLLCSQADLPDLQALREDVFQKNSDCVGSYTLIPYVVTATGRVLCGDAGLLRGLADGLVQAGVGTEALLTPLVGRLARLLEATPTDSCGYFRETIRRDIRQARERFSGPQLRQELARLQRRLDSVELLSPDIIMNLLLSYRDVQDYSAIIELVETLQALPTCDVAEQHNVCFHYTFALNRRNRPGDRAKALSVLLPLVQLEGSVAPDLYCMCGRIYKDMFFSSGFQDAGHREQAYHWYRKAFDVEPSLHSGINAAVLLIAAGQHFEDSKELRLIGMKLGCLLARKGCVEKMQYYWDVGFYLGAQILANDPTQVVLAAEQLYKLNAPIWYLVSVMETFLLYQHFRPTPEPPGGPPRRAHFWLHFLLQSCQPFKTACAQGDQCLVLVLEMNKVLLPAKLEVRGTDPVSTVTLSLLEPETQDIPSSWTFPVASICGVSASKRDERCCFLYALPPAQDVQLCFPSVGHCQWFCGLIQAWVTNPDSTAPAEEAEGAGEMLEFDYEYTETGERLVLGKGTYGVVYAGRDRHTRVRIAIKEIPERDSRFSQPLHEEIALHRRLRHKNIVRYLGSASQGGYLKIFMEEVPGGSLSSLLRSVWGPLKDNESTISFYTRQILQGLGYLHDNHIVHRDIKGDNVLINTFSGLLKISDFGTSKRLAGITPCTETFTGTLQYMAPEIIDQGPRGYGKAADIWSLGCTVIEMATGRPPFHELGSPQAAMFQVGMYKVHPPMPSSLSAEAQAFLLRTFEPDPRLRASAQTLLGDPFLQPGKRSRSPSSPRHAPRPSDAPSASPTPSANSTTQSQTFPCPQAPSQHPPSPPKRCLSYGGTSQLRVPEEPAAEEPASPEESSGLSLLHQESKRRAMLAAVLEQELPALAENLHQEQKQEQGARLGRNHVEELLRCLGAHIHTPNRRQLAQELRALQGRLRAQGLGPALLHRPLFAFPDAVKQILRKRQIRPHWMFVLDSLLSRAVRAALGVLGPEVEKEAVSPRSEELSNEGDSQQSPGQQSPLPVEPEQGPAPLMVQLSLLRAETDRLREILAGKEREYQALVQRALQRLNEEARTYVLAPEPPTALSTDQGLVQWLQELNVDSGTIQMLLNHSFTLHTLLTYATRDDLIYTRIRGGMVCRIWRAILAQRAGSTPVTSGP
Chain of UniProt P42679 (whole entry, looked up): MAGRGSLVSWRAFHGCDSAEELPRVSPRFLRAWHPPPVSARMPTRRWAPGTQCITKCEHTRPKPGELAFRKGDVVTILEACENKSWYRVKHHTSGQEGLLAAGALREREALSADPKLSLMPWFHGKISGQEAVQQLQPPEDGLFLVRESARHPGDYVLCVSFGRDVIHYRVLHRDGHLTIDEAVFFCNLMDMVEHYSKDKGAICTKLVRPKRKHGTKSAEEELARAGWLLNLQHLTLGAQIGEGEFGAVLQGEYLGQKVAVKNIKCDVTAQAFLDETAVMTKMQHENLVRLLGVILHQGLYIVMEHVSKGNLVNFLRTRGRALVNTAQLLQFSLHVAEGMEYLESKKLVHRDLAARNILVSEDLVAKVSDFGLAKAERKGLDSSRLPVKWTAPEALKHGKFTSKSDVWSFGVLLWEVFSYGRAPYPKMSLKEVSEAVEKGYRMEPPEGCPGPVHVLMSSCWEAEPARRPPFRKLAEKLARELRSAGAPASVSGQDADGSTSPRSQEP

Set 1
SMILES: O=C(Nc1cnn(-c2csc(C(=O)NC3COC3)c2)c1)Nc1c(F)cccc1Cl
Tested at: 5 µM
| target | read-out | action | technique | relative to | remaining activity [%] |
| --- | --- | --- | --- | --- | --- |
| MAP3K6 (Homo sapiens, UniProt O95382) | enzyme activity | inhibitor | – | – | 92.5 |
| CHEK1 (Homo sapiens, UniProt O14757) | enzyme activity | – | – | untreated control | 138 |
| ERN1 (Homo sapiens, UniProt O75460) | enzyme activity | inhibitor | – | – | 95.8 |
| DDR2 (Homo sapiens, UniProt Q16832) | enzyme activity | – | – | untreated control | 94.1 |
| Protein kinase C beta type, isoform beta-II (PRKCB, Homo sapiens, UniProt P05771) | kinase activity | – | kinase panel profiling | – | 99 |
| MATK (Homo sapiens, UniProt P42679) | enzyme activity | – | – | untreated control | 99.1 |
| PAK1 (Homo sapiens, UniProt Q13153) | enzyme activity | – | – | untreated control | 76.1 |
| EPHB1 (Homo sapiens, UniProt P54762) | enzyme activity | – | – | untreated control | 92.9 |
| FLT4 (Homo sapiens, UniProt P35916) | enzyme activity | – | – | untreated control | 86.6 |

Set 2
Structure (SMILES): CN(c1ccnc(CNc2nc(Nc3ccc4c(c3)CC(=O)N4)ncc2C(F)(F)F)n1)S(C)(=O)=O
Read-out: cell-free assay
Tested at: 10 µM
| target | inhibition |
| --- | --- |
| ADRA2A (Homo sapiens, UniProt P08913) | 0.4% |
| HRH4 (Homo sapiens, UniProt Q9H3N8) | -22.6% |
| TMEM97 (Homo sapiens, UniProt Q5BJF2) | 60.3% |
| CHRM4 (Homo sapiens, UniProt P08173) | 8.94% |
| HTR7 (Homo sapiens, UniProt P34969) | -4.55% |
| DRD2 (Homo sapiens, UniProt P14416) | 9.12% |
| SIGMAR1 (Homo sapiens, UniProt Q99720) | 23.1% |
| HRH2 (Homo sapiens, UniProt P25021) | 1.75% |
| DRD1 (Homo sapiens, UniProt P21728) | 0.76% |
| CHRM5 (Homo sapiens, UniProt P08912) | -6.47% |

Set 3
SMILES: COc1cc(/C=C(\C#N)C(=O)c2ccc(O)c(O)c2)cc(I)c1O
Action: inhibitor
Tested at: 5 µM
| target | assay | test system | setting | scale | log2 fold change |
| --- | --- | --- | --- | --- | --- |
| DAPK3 (Homo sapiens, UniProt O43293) | – | human cells | – | relative to: vehicle | -0.026 |
| kinase–CDC37 interaction | kinase–CDC37 binding | human cells | oncogenic TPM3-ALK fusion | relative to: vehicle | 0.207 |
| ACVR2B (Homo sapiens, UniProt Q13705) | cell-based kinome profiling | human cells | – | relative to: vehicle control | -0.083 |
| Aurora kinase B (AURKB, Homo sapiens, UniProt Q96GD4) | kinase-CDC37 interaction | human cells | – | relative to: vehicle | -0.237 |
| ALK (Homo sapiens, UniProt Q9UM73, T1151M) | cell-based kinome profiling | human cells | – | relative to: vehicle control | 0.064 |
| kinase–CDC37 interaction | kinase–CDC37 binding | human cells | oncogenic PRKAR1A-RET fusion | relative to: vehicle | -0.611 |

Set 4
Host: mouse
Medium: microsomes or S9
Tested at: 2 µM
Time: 0.5 h
| SMILES | remaining compound [%] |
| --- | --- |
| OC1=C2C(=Nc3ccccc3NC2c2cccnc2)CC(c2ccccc2)C1 (centres unmarked) | 44.9 |
| COC(=O)c1ccc(COc2ccc(-c3nnn[nH]3)cc2)cc1 | 0.631 |
| OC1CCCC1Oc1cc(-n2nc3c(c2Cl)CCCC3)c(F)cc1Cl (centres unmarked) | 0 |
| CCc1[nH]nc(NCc2cc(Cl)cc(Cl)c2OC)c1C | 31 |
| COc1cc(C(=O)Nc2cnn(CCCC(=O)O)c2)cc(OC)c1OC | > 99.9 |
| COc1ccc(Nc2nnc(-c3ccc(C)c(S(=O)(=O)NCc4ccccn4)c3)c3ccccc23)cc1C(N)=O | 3.75 |
| O=C(c1nc2ncccn2n1)N1CCCn2cc(-c3ccccc3)nc21 | 48.3 |
| Cn1cc(-c2noc(C(O)C3CCCCCCC3)n2)nn1 (centres unmarked) | 40.5 |
| Nc1cc(C2=NOC3CCCCC23)nc(C(=O)O)c1Cl (centres unmarked) | 76.3 |
| O=C(Nc1ccccc1)C1CCCN1C1=NS(=O)(=O)c2ccccc21 (centres unmarked) | 132 |
